Published values from different studies.
Numbered parts are unrelated; each lists some results of a single study.
UniProt Q05655, sequence (whole entry, looked up): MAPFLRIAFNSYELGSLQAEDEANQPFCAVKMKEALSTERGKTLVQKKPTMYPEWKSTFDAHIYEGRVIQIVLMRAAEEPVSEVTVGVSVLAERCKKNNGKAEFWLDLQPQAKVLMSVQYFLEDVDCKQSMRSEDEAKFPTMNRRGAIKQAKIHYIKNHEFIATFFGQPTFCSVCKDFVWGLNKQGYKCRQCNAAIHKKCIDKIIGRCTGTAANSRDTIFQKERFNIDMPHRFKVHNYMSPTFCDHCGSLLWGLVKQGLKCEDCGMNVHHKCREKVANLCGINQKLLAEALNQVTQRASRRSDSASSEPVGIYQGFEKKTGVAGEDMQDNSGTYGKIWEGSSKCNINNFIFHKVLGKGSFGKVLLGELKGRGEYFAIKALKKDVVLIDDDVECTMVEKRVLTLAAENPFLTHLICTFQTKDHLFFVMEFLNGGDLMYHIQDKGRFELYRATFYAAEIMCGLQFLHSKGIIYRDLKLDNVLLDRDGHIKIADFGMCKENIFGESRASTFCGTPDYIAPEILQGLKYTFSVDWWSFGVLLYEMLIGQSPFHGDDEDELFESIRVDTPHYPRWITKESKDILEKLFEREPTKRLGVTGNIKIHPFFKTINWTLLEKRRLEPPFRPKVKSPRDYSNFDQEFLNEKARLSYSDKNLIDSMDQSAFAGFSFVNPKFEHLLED
UniProt O00750, sequence (whole entry, looked up): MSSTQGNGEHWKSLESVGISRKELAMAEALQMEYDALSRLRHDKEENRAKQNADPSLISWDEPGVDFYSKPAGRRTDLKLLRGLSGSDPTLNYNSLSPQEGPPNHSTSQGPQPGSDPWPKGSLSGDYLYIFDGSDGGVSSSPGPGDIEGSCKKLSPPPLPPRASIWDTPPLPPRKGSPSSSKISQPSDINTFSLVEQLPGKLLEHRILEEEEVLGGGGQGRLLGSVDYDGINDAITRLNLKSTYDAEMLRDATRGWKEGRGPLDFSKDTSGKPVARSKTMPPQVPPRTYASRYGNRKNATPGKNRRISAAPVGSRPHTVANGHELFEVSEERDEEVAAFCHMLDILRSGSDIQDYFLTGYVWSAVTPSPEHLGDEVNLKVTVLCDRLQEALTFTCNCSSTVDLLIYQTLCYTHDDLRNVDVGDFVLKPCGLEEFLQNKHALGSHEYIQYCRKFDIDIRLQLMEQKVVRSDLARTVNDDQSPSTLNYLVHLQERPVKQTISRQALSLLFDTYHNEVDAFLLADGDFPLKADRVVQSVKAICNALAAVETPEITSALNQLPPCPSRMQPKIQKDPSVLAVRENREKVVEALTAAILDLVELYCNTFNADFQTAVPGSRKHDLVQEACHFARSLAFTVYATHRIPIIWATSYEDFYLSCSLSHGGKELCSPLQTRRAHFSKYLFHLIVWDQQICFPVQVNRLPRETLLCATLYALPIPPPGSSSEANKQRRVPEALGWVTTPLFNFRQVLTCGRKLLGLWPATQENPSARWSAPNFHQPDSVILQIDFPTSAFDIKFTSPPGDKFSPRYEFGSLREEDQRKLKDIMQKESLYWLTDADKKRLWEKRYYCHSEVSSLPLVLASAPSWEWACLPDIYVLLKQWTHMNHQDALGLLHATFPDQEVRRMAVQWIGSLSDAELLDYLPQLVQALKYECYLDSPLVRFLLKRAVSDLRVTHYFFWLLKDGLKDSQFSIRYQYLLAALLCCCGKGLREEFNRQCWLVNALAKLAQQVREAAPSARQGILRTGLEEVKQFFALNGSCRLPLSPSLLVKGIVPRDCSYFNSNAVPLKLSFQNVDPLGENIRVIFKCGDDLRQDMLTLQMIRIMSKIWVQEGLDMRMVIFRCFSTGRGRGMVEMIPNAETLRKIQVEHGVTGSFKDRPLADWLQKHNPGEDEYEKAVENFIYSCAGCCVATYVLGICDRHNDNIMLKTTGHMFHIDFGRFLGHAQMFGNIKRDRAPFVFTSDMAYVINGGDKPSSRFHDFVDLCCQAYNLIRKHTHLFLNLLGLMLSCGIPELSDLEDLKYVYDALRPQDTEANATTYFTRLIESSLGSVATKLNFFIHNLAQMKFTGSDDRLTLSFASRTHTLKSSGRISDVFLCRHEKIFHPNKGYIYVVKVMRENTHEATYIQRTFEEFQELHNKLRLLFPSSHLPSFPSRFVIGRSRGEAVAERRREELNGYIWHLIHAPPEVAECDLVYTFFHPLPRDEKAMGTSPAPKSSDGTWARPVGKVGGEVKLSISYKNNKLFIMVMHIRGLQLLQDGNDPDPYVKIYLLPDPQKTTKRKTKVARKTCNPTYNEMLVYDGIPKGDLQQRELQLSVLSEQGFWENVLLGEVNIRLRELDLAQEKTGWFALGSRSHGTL
UniProt P51812, sequence (whole entry, looked up): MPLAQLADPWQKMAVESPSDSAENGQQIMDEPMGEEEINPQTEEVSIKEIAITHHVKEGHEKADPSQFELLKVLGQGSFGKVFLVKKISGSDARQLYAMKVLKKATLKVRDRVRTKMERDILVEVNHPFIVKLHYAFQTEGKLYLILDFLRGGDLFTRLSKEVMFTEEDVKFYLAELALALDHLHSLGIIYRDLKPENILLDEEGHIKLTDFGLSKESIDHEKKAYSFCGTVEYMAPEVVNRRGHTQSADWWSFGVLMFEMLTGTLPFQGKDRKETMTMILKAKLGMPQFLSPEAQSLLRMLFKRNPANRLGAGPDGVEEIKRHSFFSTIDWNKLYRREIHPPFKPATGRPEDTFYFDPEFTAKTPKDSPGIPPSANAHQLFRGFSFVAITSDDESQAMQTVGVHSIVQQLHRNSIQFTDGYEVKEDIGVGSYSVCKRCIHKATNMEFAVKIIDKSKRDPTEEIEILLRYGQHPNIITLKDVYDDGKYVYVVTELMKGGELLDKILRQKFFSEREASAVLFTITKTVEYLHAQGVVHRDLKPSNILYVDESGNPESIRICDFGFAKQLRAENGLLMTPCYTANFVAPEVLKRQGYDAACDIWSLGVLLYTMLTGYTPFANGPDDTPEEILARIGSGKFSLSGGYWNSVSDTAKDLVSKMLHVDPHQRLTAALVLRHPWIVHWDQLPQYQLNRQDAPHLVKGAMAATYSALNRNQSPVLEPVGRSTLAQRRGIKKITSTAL
UniProt Q9H3Y6, sequence (whole entry, looked up): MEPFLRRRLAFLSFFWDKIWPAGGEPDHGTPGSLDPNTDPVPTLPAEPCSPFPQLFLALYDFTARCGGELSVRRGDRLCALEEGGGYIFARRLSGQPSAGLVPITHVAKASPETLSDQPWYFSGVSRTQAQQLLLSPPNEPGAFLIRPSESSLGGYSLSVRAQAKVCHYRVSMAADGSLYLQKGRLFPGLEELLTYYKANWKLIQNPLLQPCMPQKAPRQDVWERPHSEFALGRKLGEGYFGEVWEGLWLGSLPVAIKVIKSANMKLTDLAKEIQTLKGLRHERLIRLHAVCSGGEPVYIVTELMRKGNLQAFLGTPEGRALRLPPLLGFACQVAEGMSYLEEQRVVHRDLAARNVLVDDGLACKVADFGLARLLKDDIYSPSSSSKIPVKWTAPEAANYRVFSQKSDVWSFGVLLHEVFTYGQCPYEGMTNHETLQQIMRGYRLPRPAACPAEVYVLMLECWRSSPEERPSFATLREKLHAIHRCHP
UniProt Q9UBE8, sequence (whole entry, looked up): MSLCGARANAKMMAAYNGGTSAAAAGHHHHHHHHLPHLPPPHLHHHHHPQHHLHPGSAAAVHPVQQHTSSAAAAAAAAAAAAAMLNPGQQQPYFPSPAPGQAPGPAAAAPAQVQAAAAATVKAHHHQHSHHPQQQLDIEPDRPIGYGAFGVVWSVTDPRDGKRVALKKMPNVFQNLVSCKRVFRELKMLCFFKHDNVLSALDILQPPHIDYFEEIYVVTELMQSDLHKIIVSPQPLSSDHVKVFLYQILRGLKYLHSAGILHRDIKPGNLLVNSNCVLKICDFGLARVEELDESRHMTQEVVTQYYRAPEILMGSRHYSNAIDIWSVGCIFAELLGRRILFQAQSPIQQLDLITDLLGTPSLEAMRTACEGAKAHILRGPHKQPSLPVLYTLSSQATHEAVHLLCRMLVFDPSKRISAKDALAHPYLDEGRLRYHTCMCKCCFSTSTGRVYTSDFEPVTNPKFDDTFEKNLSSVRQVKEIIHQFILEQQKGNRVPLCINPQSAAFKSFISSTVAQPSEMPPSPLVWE
UniProt P54762, sequence (whole entry, looked up): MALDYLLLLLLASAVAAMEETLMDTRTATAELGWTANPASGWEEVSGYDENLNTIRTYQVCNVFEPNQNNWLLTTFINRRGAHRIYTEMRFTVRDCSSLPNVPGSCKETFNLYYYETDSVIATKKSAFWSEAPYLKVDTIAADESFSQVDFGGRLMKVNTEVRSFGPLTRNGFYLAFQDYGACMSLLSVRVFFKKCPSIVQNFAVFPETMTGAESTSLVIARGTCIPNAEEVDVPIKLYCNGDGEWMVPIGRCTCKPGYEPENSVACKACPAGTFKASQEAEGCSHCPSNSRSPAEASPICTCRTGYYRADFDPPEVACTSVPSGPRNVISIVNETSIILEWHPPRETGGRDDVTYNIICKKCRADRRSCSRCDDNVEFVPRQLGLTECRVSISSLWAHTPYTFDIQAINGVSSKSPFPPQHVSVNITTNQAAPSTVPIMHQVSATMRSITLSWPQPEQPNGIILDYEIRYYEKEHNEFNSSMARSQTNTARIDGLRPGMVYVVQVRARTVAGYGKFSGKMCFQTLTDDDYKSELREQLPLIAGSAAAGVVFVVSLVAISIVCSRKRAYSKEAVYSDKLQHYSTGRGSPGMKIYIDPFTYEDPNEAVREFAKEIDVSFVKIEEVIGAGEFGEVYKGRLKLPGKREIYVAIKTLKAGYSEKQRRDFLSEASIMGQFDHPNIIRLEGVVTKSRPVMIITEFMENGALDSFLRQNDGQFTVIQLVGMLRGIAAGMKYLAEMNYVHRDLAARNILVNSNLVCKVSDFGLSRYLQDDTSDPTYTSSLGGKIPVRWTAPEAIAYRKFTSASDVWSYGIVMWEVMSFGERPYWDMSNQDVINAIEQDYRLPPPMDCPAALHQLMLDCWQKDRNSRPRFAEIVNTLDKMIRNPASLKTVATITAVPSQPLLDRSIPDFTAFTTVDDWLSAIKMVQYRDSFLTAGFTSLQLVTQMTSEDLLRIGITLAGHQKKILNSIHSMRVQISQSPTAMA

Series 1
SMILES: CN(C)C(=O)Cn1cc(-c2nc(C3(c4ccc(-c5cnc(N)nc5)cc4)CC3)no2)cn1
Effect on: cell-free assay
Technique: competition with immobilised ligand
Tested at: 1 µM
target	remaining binding [%]
Ribosomal protein S6 kinase alpha-3, N-terminal kinase domain (RPS6KA3, Homo sapiens, UniProt P51812)	92
PIK3CD (Homo sapiens, UniProt O00329)	100
PIK3C2B (Homo sapiens, UniProt O00750)	100
PIK3CA (Homo sapiens, UniProt P42336, H1047Y)	94
NLK (Homo sapiens, UniProt Q9UBE8)	94
Tyrosine-protein kinase ABL1, phosphorylated (ABL1, Homo sapiens, UniProt P00519, Q252H)	100
MAP3K11 (Homo sapiens, UniProt Q16584)	87
LATS2 (Homo sapiens, UniProt Q9NRM7)	46
RIPK1 (Homo sapiens, UniProt Q13546)	89
DDR1 (Homo sapiens, UniProt Q08345)	86
Tyrosine-protein kinase ABL1, non-phosphorylated (ABL1, Homo sapiens, UniProt P00519)	93
PRKCD (Homo sapiens, UniProt Q05655)	67
EPHB1 (Homo sapiens, UniProt P54762)	100
TNIK (Homo sapiens, UniProt Q9UKE5)	100
SRMS (Homo sapiens, UniProt Q9H3Y6)	73

Series 2
Species: mouse
Sample: microsomes or S9
Tested at: 2 µM
Time: 0.5 h
SMILES	remaining compound
COc1cc(=O)[nH]cc1C(=O)N1Cc2ccccc2OC(C)(C)C1	75.5%
Cc1sc2c(c1C)c1nnc(SCCN(C)C)n1c1nnc(SCCN(C)C)n21	58.3%
O=S(=O)(c1ccc(F)cc1Cl)N1CC[C@H]2[C@H](C1)OCc1cnnn12	55.7%

Series 3
Target: Prothrombin, mature alpha-thrombin (F2, Homo sapiens, UniProt P00734)
Technique: aptamer microarray, sandwich
Molecule type: DNA with 2'F-ANA
Sample: in vitro
Tested at: 200 nM
Setting: whole 15-mer aptamer, many near background
With: Cy3 exosite-II aptamer, 400 nM
Direction: higher = stronger binding
Oligonucleotide: GGTTGGTGTGGTTGG
Modification	mean fluorescence intensity [a.u.]
2'F-ANA at 1 2 5 8 9 12 14 15	57.6
2'F-ANA at 4 6 8 10 12 14 15	61.4
2'F-ANA at 1 3 4 5 9 10 12 14 15	46.5
2'F-ANA at 1 4 6 7 11 12 13 14	58.9
2'F-ANA at 1 3 4 6 9 10 11 13 14 15	61
2'F-ANA at 3 7 8 9 10 12 13 14	381
2'F-ANA at 2 3 4 9 10 11 12 13 15	235
2'F-ANA at 1 3 8 9 11 15	298

Series 4
Target: Hepatocyte nuclear factor 3-alpha (Foxa1, Mus musculus, UniProt P35582, residues 1-468, full length assumed)
Technique: EMSA with sequencing
Molecule type: double-stranded DNA, one strand shown
Sample: in vitro
Tested at: 10 and 20 nM
Setting: whole designed probe, mean of two concentrations, ends assumed
Reference: negative control set to 0
Direction: higher = stronger binding
Shared flanks, not repeated: GTGAGCGGTGCCCATTGATGGGGAAC … TTTCACTGGGATCGTGGGGAC
Construct (chain): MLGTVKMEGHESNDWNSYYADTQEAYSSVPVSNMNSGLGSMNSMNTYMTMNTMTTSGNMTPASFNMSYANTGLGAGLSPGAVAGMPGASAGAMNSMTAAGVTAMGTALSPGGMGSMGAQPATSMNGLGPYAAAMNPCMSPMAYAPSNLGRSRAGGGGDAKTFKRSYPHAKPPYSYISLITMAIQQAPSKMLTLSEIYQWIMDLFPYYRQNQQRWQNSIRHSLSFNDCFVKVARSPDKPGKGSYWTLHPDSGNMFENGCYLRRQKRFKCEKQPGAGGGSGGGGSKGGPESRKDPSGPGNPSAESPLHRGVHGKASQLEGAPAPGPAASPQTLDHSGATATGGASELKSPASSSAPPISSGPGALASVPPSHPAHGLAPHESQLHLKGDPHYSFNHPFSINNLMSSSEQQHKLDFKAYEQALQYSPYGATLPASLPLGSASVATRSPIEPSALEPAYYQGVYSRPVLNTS
Oligonucleotide	normalised bound fraction [ratio]
ATCTTCCCCCTCTTCCTTGCCCCACCAGCTCACCTTCCCGGGTTATTTGCAGATAGGAAAATAAATAAAGCCGGCATTCGTTAACCCTCTTCTGGCGCAAACTGCTGTTTGCTCTGGTCCTTTGGATGAATCATGGCGACGCCAGGCTCCGGGAGAGCAAAGCACCGTGTCAGGGCCATGATCCGGGGTGGCC	0.386
GGATTAAGTGGGCAGAAATTTTTTAGGAAGAAGTGTAGAAAAAATTCTGAGGCTTTGTCTTTCCAACTAAGATGACTAAAGGGATAATTTCTAAGTAATCTGGGATGCAAGGAACAATTAATTTATTTTTAACCAGAATAGTGATTTAAGTCTAACACGTTCTTGAATAACAATTTTCAAACTCCAGGAAAAC	-0.0736
TCGGCCAGCCTGGCTTCTGCGCCCCGCCAGGAGGTCGCGGAGCGGAGCGCGGCCAGGAAGTGAGCTGAGAGTGACAGCTCCCCCCACGCTGTTTGTTTATTCTCTCCAATGACTCATTCCACACTGGCTCTTCTTTCTTTCGGGAGGAGGGGAGAAAGGAGCGGGAGGGCGGGCGGGCAGGGGAGAGGCAGGC	0.425
TAGGCCAGCGGTTTCTTGTATAAAGGAAACAAAAGTCATATAATTCCTTTTACTAAGGTCACTGACCTTTGCAGCTTCTTCCACGATGAGAGAGTAAACAGAAGATGACTAAGTGTTTTTGACATCCAAAGTCACCCACAGCCAGAACCAGAGTCTGGGAGAAGTGTATTTTGGACATCGTGACCTCAACTAT	0.298
CAAATCAAAAGACAAAAGAAACTAATCATTCCTTTTAAAGATAATTGCTGTTTTTATCAGATCAATAAAAAATGTGTTAACAACATTAAAAAGTAAACAAGCAAACACAAATGTCAAAAAAGCTAACCTAATGATGACATGTCACTTTCTCCAGTCCCAGCCCCACATCATATAGGAACTTTCCAACTGCCTG	0.426
GGTTGGACACCCCTGCTTTAATGTATGGAAATTGTGTACTCTGTATATATTCAAAGTACTGTGTGTATATTTGAGTATATTTGAATATTCCAAAGTAAACAAATAACTATGAAAGAATAGTCCTTACATAGCTAACATAAGCTGATCAATAATTAGTTTTTGTTAACCATCTGGTGTATGCTTTCTGTACCAA	0.532
TACCAAAAATATCTAGAATGGAATGACATCTCCTCTAAGGCAGGGGATAATTAACTTGTCCCCACAAAGTATAAATAATCTCTTTCTTCACAAAGTAATCTTGTTTTTCTGACACTATCTGACATTTCCATCCAGTGTGCTTTTGAAACTGTATGCTCTTGTTTTTGTTTTTTATTTTTGTTTTTTTTGTTCA	0.026
AGATATTAAACGCCCAGAGAAAGGCTATAATAAAAAATGCATTTAACTTTTTCAAATCTCTTGTTCCCACATCTACTTGAATGCAGAAACTCTTGTTTGCCTTAATATTTACTTGTATTTTGCAGAACAAATTTTTGCAGAATTCATTTTGGAAAATGCAGCCACTGACAACTGGGATAATTTTCTAAAGGAA	0.145

Excerpt of the above (series 1):
target	remaining binding [%]
SRMS (Homo sapiens, UniProt Q9H3Y6)	73
LATS2 (Homo sapiens, UniProt Q9NRM7)	46
Ribosomal protein S6 kinase alpha-3, N-terminal kinase domain (RPS6KA3, Homo sapiens, UniProt P51812)	92
EPHB1 (Homo sapiens, UniProt P54762)	100
PIK3CD (Homo sapiens, UniProt O00329)	100
Tyrosine-protein kinase ABL1, non-phosphorylated (ABL1, Homo sapiens, UniProt P00519)	93
